Measurements of several laboratories.
Protocols differ between the studies behind these lines. Numbers after ± are the reported error.

CC(C)C[C@H](NC(=O)C[C@H](O)[C@H](CC(C)C)NC(=O)[C@H](Cc1c[nH]cn1)NC(=O)CNC(=O)[C@@H](NC(=O)[C@H](C)NC(=O)[C@H](Cc1c[nH]c2ccccc12)NC(=O)[C@H](CCC(N)=O)NC(=O)[C@@H](Cc1ccccc1)NC(=O)COCCOCCNC(=O)CCC(C(=O)O)N1CCN(CC(=O)O)CCN(CC(=O)O)CCN(CC(=O)O)CC1)C(C)C)C(N)=O (stereo partly drawn) [lutetium-177 labelled] — tissue uptake (female BALB/c nu/nu mice, bone; intravenous, 100 pmol, 24 h, added: PA 300 µg): 0.013 ± 0.004 %ID/g
CC(C)=NNc1ccc(C(=O)N[C@H]2CSSC[C@@H](C(=O)O)NC(=O)[C@H](Cc3c[nH]cn3)NC(=O)[C@H](CO)NC(=O)[C@H](Cc3ccccc3)NC(=O)[C@@H]3CCCN3C(=O)[C@H](CO)NC(=O)[C@@H]3CCCN3C(=O)[C@H]([C@@H](C)O)NC2=O)cn1 — HPLC retention time (analytical HPLC; acetone hydrazone-protected conjugate): 24.6 min
CC(C)C[C@H](NC(=O)C[C@H](O)[C@H](CC(C)C)NC(=O)[C@H](Cc1c[nH]cn1)NC(=O)CNC(=O)[C@@H](NC(=O)[C@H](C)NC(=O)[C@H](Cc1c[nH]c2ccccc12)NC(=O)[C@H](CCC(N)=O)NC(=O)[C@@H](Cc1ccccc1)NC(=O)COCCOCCNC(=O)CN1CCN(CC(=O)O)CCN(CC(=O)O)CCN(CC(=O)O)CC1)C(C)C)C(N)=O [lutetium-177 labelled] — tissue uptake (female BALB/c nu/nu mice, pancreas; intravenous, 50 pmol, 1 h): 5 ± 1 %ID/g
N=C(N)NCCC[C@@H](NC(=O)CCOCCOCCNC(=O)[C@H](CCCCNC(=O)CC[C@H](NC(=O)c1ccc(NCc2cnc3nc(N)[nH]c(=O)c3n2)cc1)C(=O)O)NC(=O)CO/N=C/[C@H](F)[C@@H](O)[C@H](O)[C@H](O)CO)C(=O)NCC(=O)N[C@H](CC(=O)O)C(N)=O [fluorine-18 labelled] — intact radiotracer in urine (radio-HPLC; athymic nude mice, urine; 2.5 h): > 75%
COc1cccc2c1C(=O)c1c(O)c3c(c(O)c1C2=O)C[C@@](O)(C(=O)CO)C[C@@H]3O[C@H]1C[C@H](NC(=O)[C@@H]2CCCN2C(=O)CN)[C@H](O)[C@H](C)O1 — Cmax (healthy mouse, plasma; intravenous, 94.4 mg/kg PhAc-ALGP-Dox): 2830 ± 360 nM
O=C(O)CC[C@H](NC(=O)N[C@@H](CCCCNC(=O)[C@H](Cc1ccc2ccccc2c1)NC(=O)CCCCCNC(=O)CN1CCN(CC(=O)O)CCN(CC(=O)O)CCN(CC(=O)O)CC1)C(=O)O)C(=O)O [gallium-68 labelled] — tumour to non-tumour ratio (PET/CT SUVmean; mice with 22Rv1 xenograft; intravenous, 3.7 MBq, 1 h): 4.44 ± 0.34
CC(C)[C@H](NC(=O)[C@H](Cc1ccc(O)cc1)NC(=O)[C@H](Cc1ccc(O)cc1)NC(=O)[C@@H]1CCCN1C(=O)[C@H](CCC(=O)O)NC(=O)[C@H](CCC(=O)O)NC(=O)[C@H](Cc1c[nH]c2ccccc12)NC(=O)[C@@H]1CCCN1C(=O)[C@@H](NC(=O)[C@H](CCC(N)=O)NC(=O)c1ccc2c(c1)C(=O)OC21c2ccc(O)cc2Oc2cc(O)ccc21)C(C)C)C(=O)N[C@H](C(=O)N[C@@H](CCCCN)C(=O)N[C@@H](CCCCN)C(=O)N[C@@H](CO)C(=O)N[C@@H](CO)C(=O)NCC(=O)NCC(N)=O)C(C)C — plasma concentration (human, plasma; intravenous infusion, 200 mg, predose, day 1): not detected
C[C@@H](O)[C@@H](CO)NC(=O)[C@@H](CCCNC(=N)N)NC(=O)[C@@H]1CCCN1C(=O)[C@@H]1CSSC[C@H](NC(=O)[C@H](Cc2ccccc2)NC(=O)CN2CCN(CC(=O)O)CCN(CC(=O)O)CCN(CC(=O)O)CC2)C(=O)N[C@@H](Cc2ccc(O)cc2)C(=O)N[C@@H](Cc2ccccc2)C(=O)N[C@@H](CCC(N)=O)C(=O)N[C@@H](CC(N)=O)C(=O)N1 [gallium-68 labelled] — radiochemical purity (PBS; 1 h, 37 °C): > 99%
COc1cccc2c1C(=O)c1c(O)c3c(c(O)c1C2=O)C[C@@](O)(C(=O)CO)C[C@@H]3O[C@H]1C[C@H](NC(=O)[C@@H]2CCCN2C(=O)CNC(=O)[C@@H](N)CC(C)C)[C@H](O)[C@H](C)O1 — Cmax (healthy mouse, plasma; intravenous, 23.6 mg/kg PhAc-ALGP-Dox): 69 ± 30 nM
